Experimental data gathered from unrelated publications.
Each numbered part is a random draw from the data of one study; scales do not carry over between parts. Substitutions count along the parent as printed.
Sequence of UniProt Q8N2K1 (whole entry, looked up): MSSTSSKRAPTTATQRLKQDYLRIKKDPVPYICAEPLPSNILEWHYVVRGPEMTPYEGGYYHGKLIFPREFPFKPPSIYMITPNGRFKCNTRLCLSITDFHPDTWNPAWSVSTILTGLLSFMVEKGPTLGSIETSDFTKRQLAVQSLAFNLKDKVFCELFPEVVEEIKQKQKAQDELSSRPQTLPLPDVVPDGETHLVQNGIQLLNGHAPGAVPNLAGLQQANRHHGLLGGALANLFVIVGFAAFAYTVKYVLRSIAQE
Sequence of UniProt Q9H832 (whole entry, looked up): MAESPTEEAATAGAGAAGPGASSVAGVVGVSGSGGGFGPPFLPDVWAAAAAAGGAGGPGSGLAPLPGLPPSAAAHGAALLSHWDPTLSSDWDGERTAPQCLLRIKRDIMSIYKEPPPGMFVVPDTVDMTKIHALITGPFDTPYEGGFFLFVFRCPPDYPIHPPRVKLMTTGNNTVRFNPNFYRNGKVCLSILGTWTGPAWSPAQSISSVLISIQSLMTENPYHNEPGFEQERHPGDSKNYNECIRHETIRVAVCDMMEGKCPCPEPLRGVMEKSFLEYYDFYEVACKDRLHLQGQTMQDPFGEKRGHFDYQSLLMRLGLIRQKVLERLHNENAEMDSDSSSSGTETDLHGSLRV
Sequence of UniProt Q9Y385 (whole entry, looked up): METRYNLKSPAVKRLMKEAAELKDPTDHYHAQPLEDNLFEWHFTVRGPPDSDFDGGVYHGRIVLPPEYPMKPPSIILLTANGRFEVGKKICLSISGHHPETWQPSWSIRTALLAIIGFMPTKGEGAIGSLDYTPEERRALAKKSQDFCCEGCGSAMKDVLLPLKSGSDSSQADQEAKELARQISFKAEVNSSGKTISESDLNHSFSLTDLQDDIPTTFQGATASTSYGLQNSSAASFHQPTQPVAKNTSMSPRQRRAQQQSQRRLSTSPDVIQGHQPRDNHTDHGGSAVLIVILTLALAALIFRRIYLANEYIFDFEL
Sequence of UniProt Q9C0C9 (whole entry, looked up): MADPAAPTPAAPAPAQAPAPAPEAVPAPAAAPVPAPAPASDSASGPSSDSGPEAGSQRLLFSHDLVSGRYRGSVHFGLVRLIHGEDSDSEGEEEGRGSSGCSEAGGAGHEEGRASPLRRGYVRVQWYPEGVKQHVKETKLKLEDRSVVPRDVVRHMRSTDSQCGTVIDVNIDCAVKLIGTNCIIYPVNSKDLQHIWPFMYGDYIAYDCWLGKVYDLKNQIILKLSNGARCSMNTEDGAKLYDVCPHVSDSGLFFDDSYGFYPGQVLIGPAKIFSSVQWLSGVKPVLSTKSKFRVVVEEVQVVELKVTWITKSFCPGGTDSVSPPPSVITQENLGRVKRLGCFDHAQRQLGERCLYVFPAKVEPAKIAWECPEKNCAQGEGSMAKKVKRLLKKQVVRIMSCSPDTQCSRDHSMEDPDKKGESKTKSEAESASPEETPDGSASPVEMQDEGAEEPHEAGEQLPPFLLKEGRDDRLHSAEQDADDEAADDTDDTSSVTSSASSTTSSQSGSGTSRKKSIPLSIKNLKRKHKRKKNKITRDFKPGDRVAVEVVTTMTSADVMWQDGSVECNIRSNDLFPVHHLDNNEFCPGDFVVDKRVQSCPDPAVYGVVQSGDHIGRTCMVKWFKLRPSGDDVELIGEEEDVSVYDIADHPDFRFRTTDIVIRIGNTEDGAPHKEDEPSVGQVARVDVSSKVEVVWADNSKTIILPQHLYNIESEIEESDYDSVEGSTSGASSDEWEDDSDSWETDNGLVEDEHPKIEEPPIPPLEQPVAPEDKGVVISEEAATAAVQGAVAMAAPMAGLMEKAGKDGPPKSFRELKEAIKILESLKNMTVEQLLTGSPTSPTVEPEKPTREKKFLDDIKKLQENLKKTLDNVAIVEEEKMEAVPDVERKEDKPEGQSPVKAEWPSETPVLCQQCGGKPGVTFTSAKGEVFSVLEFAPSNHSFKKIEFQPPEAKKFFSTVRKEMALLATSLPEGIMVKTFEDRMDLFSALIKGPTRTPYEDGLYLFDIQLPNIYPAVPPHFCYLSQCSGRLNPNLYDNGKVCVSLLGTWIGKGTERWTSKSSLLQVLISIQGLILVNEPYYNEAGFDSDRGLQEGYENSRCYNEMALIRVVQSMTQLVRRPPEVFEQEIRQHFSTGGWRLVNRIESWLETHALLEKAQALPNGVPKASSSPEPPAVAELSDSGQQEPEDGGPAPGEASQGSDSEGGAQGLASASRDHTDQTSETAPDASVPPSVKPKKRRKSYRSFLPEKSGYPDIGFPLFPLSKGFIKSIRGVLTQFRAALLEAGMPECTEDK
Sequence of UniProt O00762 (whole entry, looked up): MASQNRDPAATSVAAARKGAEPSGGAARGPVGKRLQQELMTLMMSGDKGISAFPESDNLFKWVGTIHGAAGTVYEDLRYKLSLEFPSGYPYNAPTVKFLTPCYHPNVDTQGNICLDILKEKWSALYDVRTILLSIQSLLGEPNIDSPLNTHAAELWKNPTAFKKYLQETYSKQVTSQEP
Sequence of UniProt Q16763 (whole entry, looked up): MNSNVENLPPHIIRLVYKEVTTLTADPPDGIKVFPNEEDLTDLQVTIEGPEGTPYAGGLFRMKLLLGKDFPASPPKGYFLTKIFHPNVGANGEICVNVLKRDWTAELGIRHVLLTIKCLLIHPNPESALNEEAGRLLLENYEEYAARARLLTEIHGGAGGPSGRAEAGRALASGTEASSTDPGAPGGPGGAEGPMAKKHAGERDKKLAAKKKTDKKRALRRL
Sequence of UniProt Q7Z7E8 (whole entry, looked up): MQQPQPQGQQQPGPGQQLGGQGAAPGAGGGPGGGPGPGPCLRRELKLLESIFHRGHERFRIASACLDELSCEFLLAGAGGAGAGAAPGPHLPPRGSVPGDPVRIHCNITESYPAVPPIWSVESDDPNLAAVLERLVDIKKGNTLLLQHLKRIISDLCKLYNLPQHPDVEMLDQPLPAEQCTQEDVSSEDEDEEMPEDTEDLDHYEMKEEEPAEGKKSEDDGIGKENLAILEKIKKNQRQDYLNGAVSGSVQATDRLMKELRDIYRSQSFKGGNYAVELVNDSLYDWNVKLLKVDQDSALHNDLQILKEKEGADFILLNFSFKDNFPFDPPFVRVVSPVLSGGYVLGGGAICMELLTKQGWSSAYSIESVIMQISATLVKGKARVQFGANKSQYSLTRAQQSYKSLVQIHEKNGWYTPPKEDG
Sequence of UniProt P63146 (whole entry, looked up): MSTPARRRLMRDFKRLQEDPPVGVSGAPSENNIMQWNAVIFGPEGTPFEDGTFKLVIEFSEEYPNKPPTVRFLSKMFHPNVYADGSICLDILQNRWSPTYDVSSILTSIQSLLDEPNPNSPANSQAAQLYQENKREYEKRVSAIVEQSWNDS

Set 1
Target: RNA binding protein fox-1 homolog 2, RRM domain, GST-SBP tag (RBFOX2, Homo sapiens, UniProt O43251-10, residues 100-194)
Technique: RNA Bind-n-Seq
Molecule type: RNA
Sample: in vitro
Concentration: 365 nM
Notes: natural RNA segment, single round, ends assumed
Reference: no-protein control
Direction: higher = stronger binding
Residues (chain): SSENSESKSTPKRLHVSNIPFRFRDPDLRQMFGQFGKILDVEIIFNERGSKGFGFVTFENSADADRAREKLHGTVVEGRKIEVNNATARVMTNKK
| Sequence | RBNS enrichment (R) |
| --- | --- |
| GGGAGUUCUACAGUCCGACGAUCUCCUUCUGGAACAGUGUGAGACAAUUAAACUUCAUUCCCUGUGGGUUAGCACUUAAUAUGUAGAAGCUUGGGCUUGAAGGUGAUGUCCACCUUAAUCAGCAUCACUUGCAUGGAAUUCUCGGGUGCCAA | 12.1 |
| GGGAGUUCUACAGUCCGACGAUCGUGUCUCCCUUAGAUGAGAUCUAGACGCCCCCAAAUCCUUGAGAUGUGGGUAUAGCUCAGGGUAAGCUGCUCUGAGGUAAAGGUCCAUGAACCCUGCCCCACUCCUGUCAUGGAAUUCUCGGGUGCCAA | 0.239 |
| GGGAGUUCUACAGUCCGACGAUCAAAUAUUUUAGAUAAUUCUUAAACUAUGAACCUUCUUAACAUCACUGUCUUGCCAGAUUACCGACACUGUCACUUGACCAAUACUGACCCUCUUUACCUCGCCCACGCGGUGGAAUUCUCGGGUGCCAA | 0.884 |
| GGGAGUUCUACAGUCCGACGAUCUGAGAGAGUGGCAUUGGCAGCAGGUGCUGCUACCCUCCCUGCUGUCCCCUCUUGCCCCAACCCCCAGCACCCGGGCUCAGGGACCACAGCAAGGCACCUGCAGGUUGGGCUGGAAUUCUCGGGUGCCAA | 0.34 |
| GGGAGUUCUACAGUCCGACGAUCUCCGCGCUGAAGAACUUACCGAAGCAUCAGGGGCAGAAGAGACCACAGACAUGGUGUCUGCAGUUUCCCAGCUGUCCGACUCCCCGGACACCACAGAGGAAGCCACCCCAUGGAAUUCUCGGGUGCCAA | 0.523 |
| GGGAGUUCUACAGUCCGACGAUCCUAUCUGAGAACUCACAGAUUGUCUUUGCCUCUCUAGGCAGAAACAGAGCUACCCACUGCAGCGGCCUGACUGUGCAGCACUCAGCUCUUUGGCUCUCUCUGAAAUGCCCUGGAAUUCUCGGGUGCCAA | 0.84 |
| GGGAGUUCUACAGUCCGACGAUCCAGAAAAGACUUCUUAAAUCCACUCCAGGGAAUACUUGAAAGGCAAGUCAUUGUGACUAACACUUCAGUUCAUUGGCCCAUGAUCAUUUCAGAUUUUAACAGCUGUUACUUGGAAUUCUCGGGUGCCAA | 0.401 |
| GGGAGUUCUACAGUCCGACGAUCGGUUAAAUAAAAACACUUGGGGGUAAGAGGGCUUUCUUCAGAGACUCCCAGGUGGGAGUGCCUCUAGUCUGGUGGUCCUCAAAGACUCAUCCACAGCAGCAUCUGCCCAUUGGAAUUCUCGGGUGCCAA | 1.87 |
| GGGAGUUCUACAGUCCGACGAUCUGGUUAAGGAACGUUCCUGCAAACAUUCAAGUAGACCUUCUAUAACAGACUGCAGCGUGCAUGGCCUCUACCCACAAGAGAUGCACUGCAGGAGGCCGGCCCUGUUCUCUUGGAAUUCUCGGGUGCCAA | 0.895 |
| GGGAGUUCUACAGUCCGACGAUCCCACGUUUUGCCUUUCUCCUGCCCCAAAUCAGGCAGCUCCCUUGGAGCAGGGUUUCCUCAGAUGAGGACUGCAUUCUUUGAAAACAAAGAAUGUCGCCAAGGAAGAAACCUGGAAUUCUCGGGUGCCAA | 0.25 |
| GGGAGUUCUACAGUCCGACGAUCGCCUUUAAUAUGAUAUAGGAAGGCAGAUACAUUGAUAUCACUUGUAGAACUACUUUGGAAUUUAUCUCCAUUUUCCACAAAAAGAAGCUUCUUUGAUGAAGGAGGAGAGAUGGAAUUCUCGGGUGCCAA | 0.252 |
| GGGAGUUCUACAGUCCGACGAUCUCUUUUUGACGUGUGUUUUUAGUUUAGAAGUGCUGUAUUCCACAAGGUUUAAGUCAGUGAGGUUGGAAGAUACCCUAUCUUUUUUAUUCAAAAAGCACAAUCAAUCUUUUUGGAAUUCUCGGGUGCCAA | 0.542 |

Set 2
Target: RING finger protein unkempt homolog, zinc fingers 1-6, GST-SBP tag (UNK, Homo sapiens, UniProt Q9C0B0, residues 30-357)
Sequence of UniProt Q9C0B0 (30-357, looked up): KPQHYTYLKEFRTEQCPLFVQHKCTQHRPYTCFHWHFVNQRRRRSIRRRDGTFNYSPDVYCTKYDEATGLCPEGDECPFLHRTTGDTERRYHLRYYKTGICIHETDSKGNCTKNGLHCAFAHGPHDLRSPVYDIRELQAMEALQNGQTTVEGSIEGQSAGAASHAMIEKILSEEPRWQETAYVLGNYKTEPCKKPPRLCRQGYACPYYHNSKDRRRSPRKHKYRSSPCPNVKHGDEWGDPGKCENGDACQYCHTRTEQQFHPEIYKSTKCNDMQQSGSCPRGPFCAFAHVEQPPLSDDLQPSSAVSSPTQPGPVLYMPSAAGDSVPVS
Technique: RNA Bind-n-Seq
Molecule type: RNA
Sample: in vitro
Concentration: not given
Notes: RNA with constant flanks, human-mouse chimeric sites, ends assumed
Reference: input RNA pool
Direction: higher = stronger binding
| Sequence | bound/input enrichment |
| --- | --- |
| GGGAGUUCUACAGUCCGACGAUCAUGGAGAAGGAUUCUCUGCCUCGCUUUGUGCGCUCUGAAUUUUAUAAGGAGCUAAUCAAGUAGUAAUCUGGUCAGGCUUCCAAAAGUUGCCCUGUGAGUUGAGUUACAUCCUUUGUAGCACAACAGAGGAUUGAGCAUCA | 0.193 ratio |
| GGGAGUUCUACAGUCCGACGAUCUUAAACACCAAGCUGAUGGACUCUGAUGGCCUCCAUCAAGGUAUUAUGUGUGCCUUCUCUUAGUCCCUGUUUUCGGGAUGUUAUGAAUCUCAGUACUGUGGUUUGAAAGCACCAGCUUUGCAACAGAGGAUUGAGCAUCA | 0.143 ratio |
| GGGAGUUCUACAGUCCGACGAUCUGUGCAUUAUGAUGCUUAGAUGGUUUUUGCAAAAGCAGAAAUCGCUGCAAGGUAAUCCUAAUAGAGAAAAGUGGUAUUUUAAACCUUUGAAAUAAAUGGAUGUAACUGUACCUUGGUACACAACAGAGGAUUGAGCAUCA | 1.53 ratio |
| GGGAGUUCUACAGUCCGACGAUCCCCACGCCUCCUCUCCCACAGGCCCAAGAUAUAACCCACCAGUGCCUUUUGUCUUCCUGUCAGCUCUAAUCAAUCAUCCUGUCCUCUCACGCCCACACCAAGUGCCCAAAGUGGGGAGGGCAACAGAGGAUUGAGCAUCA | 0.645 ratio |
| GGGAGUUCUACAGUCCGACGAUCCACACCCUCUUCUGCGGGACCCUCAUCUUGCAGGCCCGGGCCUAUGUGGGACCGCACGUCCUGGCAGUGGUGACCCGGACAGGGUUCUGCACGGCAAAAGGGGGCCUGGUGAGCUCCAUCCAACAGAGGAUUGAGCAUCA | 0.111 ratio |
| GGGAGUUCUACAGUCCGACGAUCAAAUUUCCUCUCUUAAAACCUCCUCCGAAGUUGGAGUCUCUUACAGAUGCCUCAUCCCCUGUUAGCGUUUUAGUUUGGACCACCCAGCCUUGGACAAUUCCCGCCAACCAGGCAAUUUGCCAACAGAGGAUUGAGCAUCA | 1.4 ratio |
| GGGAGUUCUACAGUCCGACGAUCCUGAAAAACACAGAUAUCAAAGUUGUUGAUUUUGGAAGUGCAACGUAUGAUGAUGAACAUCACAGUACUUUGGUGUCCACAAGGCACUACAGAGCUCCCGAGGUCAUUUUGGCUUUAGGUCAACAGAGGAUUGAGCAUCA | 0.245 ratio |
| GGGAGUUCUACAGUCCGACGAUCAGAGCCCAGGAUGUUGAUGCUACAAAUCCAAAUUAUGAAAUUAUGUGUAUGAUCAGAGACUUCAGAGGGAGCUUGGAUUACAGACCCUUAACAACAGCAGAUCCUAUUGAUGAACAUAGGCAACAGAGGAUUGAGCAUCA | 0.481 ratio |
| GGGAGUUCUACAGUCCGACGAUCGAUCAUGAACCACCAUCAGAAAUGAAGAUGAGAUUACCCAAGACGAGCCAAAACCGCGCGCUACAGAAAAGUAAACUUAACCUUGCAGAGUUCCUUAAUGAAGAUACAAGUUAAGAGAGCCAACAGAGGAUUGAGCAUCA | 0.161 ratio |
| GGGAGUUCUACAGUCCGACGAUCCAGCUGCAGACAGAAAAGGAUGAGAAGGAACUUUAUAAGGUACAUUUGAAGAAUACAGAAAUAGAAAAUACGAAGCUUGUGUCAGAGAUACAGACUUUAAAAAAUUUAGAUGGAAACAAACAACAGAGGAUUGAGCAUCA | 5.17 ratio |
| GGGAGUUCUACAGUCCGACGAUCUUGUCGAAGACUCAACGAAAGACUCCAACGGUUAUUCAUAAACAUUAUCAAAUUCAUCGGAUUCGACAUUUUUACAUGAGAAAAGUCAAAUUUACUCAACAGAAUUACCAUGACAGACUGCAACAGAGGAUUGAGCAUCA | 0.208 ratio |

Set 3
Target: ABI1, truncated, D143A, DHFR fusion (Arabidopsis thaliana)
Technique: DHFR PCA, deep sequencing
Sample: yeast
Notes: methotrexate growth selection, single substitutions
With: (+)-ABA 0.39 µM
Reference: wild-type fitted maximum
Direction: higher = stronger binding
Starting sequence: PYL1, truncated, DHFR fusion (Arabidopsis thaliana); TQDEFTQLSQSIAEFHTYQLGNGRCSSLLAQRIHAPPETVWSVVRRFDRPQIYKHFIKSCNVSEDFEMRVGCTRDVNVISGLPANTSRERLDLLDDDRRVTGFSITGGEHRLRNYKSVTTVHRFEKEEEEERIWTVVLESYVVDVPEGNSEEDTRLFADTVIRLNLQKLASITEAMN
| Substitution | relative binding score |
| --- | --- |
| Q10P | 47.2% |
| N165K | -5.58% |
| A13F | 9.2% |
| R69K | 67% |
| Y53Q | -6.28% |
| R74C | -16.4% |
| V70E | 16.4% |
| R113Q | 67.3% |
| P36A | 31.2% |
| Q51R | 15.3% |
| V100F | -2.03% |
| Q10G | 50.2% |
| H16M | 1.67% |
| V161L | 70.4% |
| P37V | 25.4% |
| T119H | -7.19% |

Set 4
Sequence: QLRRLQEERTCKVCLDRAVSIVFVPCGHLVCAECAPGLQLCPICRAPVRSRVRTF (BIRC7 RING domain (UniProt Q96CA5))
Technique: yeast two-hybrid
Sample: yeast
Notes: mostly zero background
Reference: not given
Direction: higher = stronger interaction
| target | lacZ reporter activity |
| --- | --- |
| UBE2B UBC core domain (UniProt P63146) | 0 |
| UBE2I UBC core domain (UniProt P63279) | 0 |
| UBE2Z UBC core domain (UniProt Q9H832) | 0 |
| UBE2J1 UBC core domain (UniProt Q9Y385) | 0 |
| UBE2C UBC core domain (UniProt O00762) | 0 |
| UBE2S UBC core domain (UniProt Q16763) | 0 |
| UBE2O UBC core domain (UniProt Q9C0C9) | 0 |
| UBE2J2 UBC core domain (UniProt Q8N2K1) | 0 |
| UBE2Q1 UBC core domain (UniProt Q7Z7E8) | 0 |

Set 5
Target: CCNB1, cyclin fold, Cln2 fusion (human)
Technique: yeast growth competition, sequencing
Sample: yeast
Notes: weak parent motif
Reference: not given
Direction: higher = stronger binding
Starting sequence: ORC1 docking peptide (human); PRARKRLELGNLG
| Substitution | normalised enrichment score |
| --- | --- |
| G13E | 1.18 |
| N11A | 0.321 |
| A3G | -0.566 |
| R4W | 0.469 |
| L12Q | 0.375 |
| R4Q | 0.189 |
| R4I | 0.0941 |
| G10C | 0.557 |
| L9V | 1.18 |
| N11L | 0.416 |
| N11C | 1.16 |
| G10S | 0.455 |

Some of these lines once more (set 4):
| target | lacZ reporter activity |
| --- | --- |
| UBE2S UBC core domain (UniProt Q16763) | 0 |
| UBE2O UBC core domain (UniProt Q9C0C9) | 0 |
| UBE2J2 UBC core domain (UniProt Q8N2K1) | 0 |
